Experimental data gathered from unrelated publications.
Each numbered part is a random draw from the data of one study; scales do not carry over between parts.
Sequence of UniProt Q02763 (whole entry, looked up): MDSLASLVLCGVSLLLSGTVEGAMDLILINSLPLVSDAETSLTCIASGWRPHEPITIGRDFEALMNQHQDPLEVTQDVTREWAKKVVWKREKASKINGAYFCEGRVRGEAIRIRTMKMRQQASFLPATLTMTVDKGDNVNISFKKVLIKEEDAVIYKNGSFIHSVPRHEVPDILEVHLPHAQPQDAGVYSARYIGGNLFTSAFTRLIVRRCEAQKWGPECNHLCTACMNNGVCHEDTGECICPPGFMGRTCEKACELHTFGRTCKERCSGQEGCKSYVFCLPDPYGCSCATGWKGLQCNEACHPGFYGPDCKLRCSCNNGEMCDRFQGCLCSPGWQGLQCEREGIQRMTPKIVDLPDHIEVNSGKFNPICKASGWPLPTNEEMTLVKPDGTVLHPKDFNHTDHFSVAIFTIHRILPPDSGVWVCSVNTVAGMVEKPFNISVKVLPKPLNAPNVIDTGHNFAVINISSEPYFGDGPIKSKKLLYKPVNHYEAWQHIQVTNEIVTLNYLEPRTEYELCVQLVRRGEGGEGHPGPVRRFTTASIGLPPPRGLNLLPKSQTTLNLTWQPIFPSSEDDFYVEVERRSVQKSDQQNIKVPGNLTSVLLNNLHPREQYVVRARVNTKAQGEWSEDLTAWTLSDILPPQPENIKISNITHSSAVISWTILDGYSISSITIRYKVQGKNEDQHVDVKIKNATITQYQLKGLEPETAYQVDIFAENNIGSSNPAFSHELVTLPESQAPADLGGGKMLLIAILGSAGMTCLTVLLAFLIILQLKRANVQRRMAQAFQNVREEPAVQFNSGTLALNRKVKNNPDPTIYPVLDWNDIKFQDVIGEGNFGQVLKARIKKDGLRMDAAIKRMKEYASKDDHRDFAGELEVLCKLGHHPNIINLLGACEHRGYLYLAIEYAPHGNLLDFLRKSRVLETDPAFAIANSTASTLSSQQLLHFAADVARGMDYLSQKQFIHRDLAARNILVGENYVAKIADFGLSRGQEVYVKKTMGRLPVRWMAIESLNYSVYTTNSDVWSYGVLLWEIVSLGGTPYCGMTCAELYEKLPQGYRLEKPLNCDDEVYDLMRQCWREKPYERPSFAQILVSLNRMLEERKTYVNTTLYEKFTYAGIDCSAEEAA
Sequence of UniProt Q08345 (whole entry, looked up): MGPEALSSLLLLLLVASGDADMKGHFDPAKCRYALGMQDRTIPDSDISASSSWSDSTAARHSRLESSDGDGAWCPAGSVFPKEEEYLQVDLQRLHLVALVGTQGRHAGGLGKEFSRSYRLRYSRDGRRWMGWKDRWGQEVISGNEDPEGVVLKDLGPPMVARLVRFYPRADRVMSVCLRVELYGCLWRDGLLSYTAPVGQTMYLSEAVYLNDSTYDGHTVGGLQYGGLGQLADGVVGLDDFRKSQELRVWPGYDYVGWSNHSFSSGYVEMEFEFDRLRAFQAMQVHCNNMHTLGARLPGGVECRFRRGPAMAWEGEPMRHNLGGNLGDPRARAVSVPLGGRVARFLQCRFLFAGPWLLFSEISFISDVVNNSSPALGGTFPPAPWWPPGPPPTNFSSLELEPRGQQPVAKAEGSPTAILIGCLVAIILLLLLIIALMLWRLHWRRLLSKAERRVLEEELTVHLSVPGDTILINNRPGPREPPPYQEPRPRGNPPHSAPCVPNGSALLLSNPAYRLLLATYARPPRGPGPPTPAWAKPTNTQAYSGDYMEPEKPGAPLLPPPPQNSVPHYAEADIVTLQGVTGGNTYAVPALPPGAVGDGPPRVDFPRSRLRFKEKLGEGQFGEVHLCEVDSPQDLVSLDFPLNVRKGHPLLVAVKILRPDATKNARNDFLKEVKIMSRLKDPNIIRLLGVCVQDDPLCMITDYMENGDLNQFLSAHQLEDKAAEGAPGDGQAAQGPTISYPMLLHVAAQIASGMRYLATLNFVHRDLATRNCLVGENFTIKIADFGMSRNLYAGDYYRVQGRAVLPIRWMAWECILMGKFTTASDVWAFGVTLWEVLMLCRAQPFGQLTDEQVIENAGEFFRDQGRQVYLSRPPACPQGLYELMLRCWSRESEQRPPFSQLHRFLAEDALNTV
Sequence of UniProt O75116 (whole entry, looked up): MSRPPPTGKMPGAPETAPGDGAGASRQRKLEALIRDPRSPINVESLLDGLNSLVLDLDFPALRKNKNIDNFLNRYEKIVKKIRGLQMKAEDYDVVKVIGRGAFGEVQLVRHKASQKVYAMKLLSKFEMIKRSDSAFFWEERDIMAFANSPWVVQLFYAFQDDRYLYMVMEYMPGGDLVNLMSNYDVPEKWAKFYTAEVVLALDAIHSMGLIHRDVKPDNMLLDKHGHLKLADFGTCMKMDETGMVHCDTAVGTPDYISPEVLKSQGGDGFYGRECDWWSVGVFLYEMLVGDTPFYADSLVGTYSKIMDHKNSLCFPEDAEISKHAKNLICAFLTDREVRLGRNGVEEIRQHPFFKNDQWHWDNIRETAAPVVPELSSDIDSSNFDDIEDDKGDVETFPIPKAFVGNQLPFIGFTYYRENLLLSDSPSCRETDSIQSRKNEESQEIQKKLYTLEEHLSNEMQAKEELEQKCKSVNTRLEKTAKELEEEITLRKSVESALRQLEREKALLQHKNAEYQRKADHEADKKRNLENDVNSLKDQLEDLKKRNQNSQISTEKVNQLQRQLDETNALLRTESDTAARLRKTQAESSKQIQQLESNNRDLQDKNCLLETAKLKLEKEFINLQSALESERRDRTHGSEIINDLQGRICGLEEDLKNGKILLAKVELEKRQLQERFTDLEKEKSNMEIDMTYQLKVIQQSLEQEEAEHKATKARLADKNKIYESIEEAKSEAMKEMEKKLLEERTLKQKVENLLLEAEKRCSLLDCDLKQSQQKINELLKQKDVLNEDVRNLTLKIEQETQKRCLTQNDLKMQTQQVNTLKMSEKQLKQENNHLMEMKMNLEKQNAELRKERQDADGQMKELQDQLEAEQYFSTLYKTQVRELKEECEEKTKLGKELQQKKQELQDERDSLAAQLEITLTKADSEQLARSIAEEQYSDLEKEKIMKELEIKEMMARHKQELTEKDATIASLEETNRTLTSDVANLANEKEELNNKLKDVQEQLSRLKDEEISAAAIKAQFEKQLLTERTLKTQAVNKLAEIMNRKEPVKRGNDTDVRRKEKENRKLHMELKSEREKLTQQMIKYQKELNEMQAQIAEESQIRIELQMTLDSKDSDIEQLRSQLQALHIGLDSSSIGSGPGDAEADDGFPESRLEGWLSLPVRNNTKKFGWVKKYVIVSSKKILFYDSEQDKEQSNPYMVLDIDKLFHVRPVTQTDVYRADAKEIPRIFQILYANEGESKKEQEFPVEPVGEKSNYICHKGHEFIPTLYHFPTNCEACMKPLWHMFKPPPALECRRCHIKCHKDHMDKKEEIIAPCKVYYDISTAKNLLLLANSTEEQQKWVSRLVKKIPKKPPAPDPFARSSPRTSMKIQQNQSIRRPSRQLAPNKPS
Sequence of UniProt Q99640 (whole entry, looked up): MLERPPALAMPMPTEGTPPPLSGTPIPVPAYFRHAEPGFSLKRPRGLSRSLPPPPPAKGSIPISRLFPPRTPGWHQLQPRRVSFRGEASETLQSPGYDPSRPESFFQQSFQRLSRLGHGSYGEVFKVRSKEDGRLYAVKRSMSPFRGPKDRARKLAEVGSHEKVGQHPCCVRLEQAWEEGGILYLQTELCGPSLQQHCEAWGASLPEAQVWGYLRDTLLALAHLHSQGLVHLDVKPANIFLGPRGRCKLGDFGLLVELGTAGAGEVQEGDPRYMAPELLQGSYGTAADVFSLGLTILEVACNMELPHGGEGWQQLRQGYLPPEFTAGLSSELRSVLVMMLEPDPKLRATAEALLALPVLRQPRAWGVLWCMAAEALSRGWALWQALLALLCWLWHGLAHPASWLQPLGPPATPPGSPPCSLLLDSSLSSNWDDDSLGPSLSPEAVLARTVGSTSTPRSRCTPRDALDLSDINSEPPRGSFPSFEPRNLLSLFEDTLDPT
Sequence of UniProt O14757 (whole entry, looked up): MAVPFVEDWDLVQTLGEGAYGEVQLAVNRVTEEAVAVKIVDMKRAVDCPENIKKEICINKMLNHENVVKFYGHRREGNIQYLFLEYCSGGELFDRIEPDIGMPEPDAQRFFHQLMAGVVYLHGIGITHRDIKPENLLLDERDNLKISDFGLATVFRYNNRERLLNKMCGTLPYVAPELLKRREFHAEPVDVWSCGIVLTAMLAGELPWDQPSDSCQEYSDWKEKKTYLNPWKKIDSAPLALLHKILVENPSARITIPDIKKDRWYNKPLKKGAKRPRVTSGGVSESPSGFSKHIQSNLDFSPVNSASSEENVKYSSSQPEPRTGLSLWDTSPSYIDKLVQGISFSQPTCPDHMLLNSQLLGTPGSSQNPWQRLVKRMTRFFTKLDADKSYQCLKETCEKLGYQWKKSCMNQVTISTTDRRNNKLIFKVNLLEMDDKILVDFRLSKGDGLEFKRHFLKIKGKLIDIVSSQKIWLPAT

Set 1
Target: Protein kinase C delta type (PRKCD, Homo sapiens, UniProt Q05655)
Sequence of UniProt Q05655 (whole entry, looked up): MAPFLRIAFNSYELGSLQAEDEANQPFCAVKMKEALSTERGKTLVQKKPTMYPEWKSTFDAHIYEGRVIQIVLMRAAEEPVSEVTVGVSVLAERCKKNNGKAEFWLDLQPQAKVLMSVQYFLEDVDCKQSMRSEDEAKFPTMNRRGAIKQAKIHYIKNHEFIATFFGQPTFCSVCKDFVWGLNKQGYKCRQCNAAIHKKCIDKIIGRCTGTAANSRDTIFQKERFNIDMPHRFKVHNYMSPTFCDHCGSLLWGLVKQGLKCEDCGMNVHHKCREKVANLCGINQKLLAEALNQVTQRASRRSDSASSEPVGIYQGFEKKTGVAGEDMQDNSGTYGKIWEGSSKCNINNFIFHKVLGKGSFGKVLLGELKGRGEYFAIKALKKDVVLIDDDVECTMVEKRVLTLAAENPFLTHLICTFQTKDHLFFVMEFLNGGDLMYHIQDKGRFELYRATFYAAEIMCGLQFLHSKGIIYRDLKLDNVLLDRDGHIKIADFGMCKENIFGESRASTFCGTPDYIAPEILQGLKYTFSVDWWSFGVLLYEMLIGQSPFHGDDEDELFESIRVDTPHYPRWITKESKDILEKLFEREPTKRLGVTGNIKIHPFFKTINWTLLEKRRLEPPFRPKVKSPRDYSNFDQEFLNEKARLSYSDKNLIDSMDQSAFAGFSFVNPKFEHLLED
Read-out: enzyme activity
Action: inhibitor
Concentration: 0.5 µM
Reference: control
| SMILES | remaining activity |
| --- | --- |
| Nc1ncnc2n[nH]c(Nc3ccc(F)cc3)c12 | 112% |
| COc1ccc(OC)c2c(=S)c3ccccc3[nH]c12 | 103% |
| CNC(=O)c1cc(Oc2ccc(NC(=O)Nc3ccc(Cl)c(C(F)(F)F)c3)cc2)ccn1 | 104% |
| N#CC(C#N)=C(N)/C(C#N)=C/c1ccc(O)cc1 | 93.7% |
| O=C(O)c1ccc2c3c1cccc3c(=O)n1c3ccccc3nc21 | 103% |
| Cc1ccc(NC(=O)c2ccc(CN3CCN(C)CC3)cc2)cc1Nc1nc(-c2cccnc2)cs1 | 97.9% |
| O=C(Nc1cccc(Nc2cc(Nc3cccc(C(F)(F)F)c3)ncn2)c1)C1CC1 | 101% |
| NCCNc1ncc(C(N)=O)c(Nc2cccc(C(F)(F)F)c2)n1 | 69.7% |
| COc1cc2ncnc(Nc3ccc(F)c(Cl)c3)c2cc1OCCCN1CCOCC1 | 106% |
| COc1ccc(C(=O)Nc2sc3c(c2C(N)=O)CCCC3)cc1OC | 81.8% |
| O=S(=O)(c1cccc2cnccc12)N1CCCNCC1 | 84.7% |
| Nc1ccc2ncnc(NCCc3ccc(Oc4ccccc4)cc3)c2c1 | 97.6% |
| OCC(O)CCON=C1C(c2c(O)[nH]c3ccccc23)=Nc2ccccc21 (stereo not shown) | 80.6% |
| COc1ccc(CNC(=O)Nc2ncc([N+](=O)[O-])s2)cc1 | 100% |

Set 2
SMILES: O=C1NC(c2ccccn2)Sc2ccccc21 (stereo not shown)
Read-out: cell-free assay
Technique: competition with immobilised ligand
Concentration: 1 µM
| target | remaining binding |
| --- | --- |
| Serine/threonine-protein kinase 24 (STK24, Homo sapiens, UniProt Q9Y6E0) | 94% |
| Phosphatidylinositol 4,5-bisphosphate 3-kinase catalytic subunit alpha isoform (PIK3CA, Homo sapiens, UniProt P42336, H1047L) | 59% |
| Protein-tyrosine kinase 2-beta (PTK2B, Homo sapiens, UniProt Q14289) | 76% |
| Ephrin type-B receptor 6 (EPHB6, Homo sapiens, UniProt O15197) | 78% |
| Angiopoietin-1 receptor (TEK, Homo sapiens, UniProt Q02763) | 100% |
| Mitogen-activated protein kinase 3 (MAPK3, Homo sapiens, UniProt P27361) | 74% |

Set 3
Species: mouse
Matrix: microsomes or S9
Concentration: 2 µM
Time: 0.5 h
| SMILES | remaining compound [%] |
| --- | --- |
| COc1cc(-c2nc(C)c(C(=O)NCCc3ccc(S(N)(=O)=O)cc3)s2)cc(OC)c1OC | 54.4 |
| CCc1cc2c3c([nH]c2cc1S(=O)(=O)Nc1ccc2c(c1)OCCO2)CC(C)(C)CC3=O | 0.883 |
| O=C(Nc1c(O)c(Cl)cc(Cl)c1Cl)c1nc(=O)[nH][nH]1 | 81 |
| CCN(CCCNC(=O)CN1C(=O)c2cccnc2Oc2ccc(C)cc21)c1cccc(C)c1 | 0.132 |
| COC(CNC(=O)NCc1ncnn1C(C)(C)C)C(C)C (stereo not shown) | 88.3 |

Set 4
Structure (SMILES): Cc1ccc(NC(=O)c2ccnc(C(F)(F)F)c2)cc1-c1cc(OCCO)nc(N2CCOCC2)c1
| target | assay | setting | remaining binding [%] |
| --- | --- | --- | --- |
| Rho-associated protein kinase 2 (ROCK2, Homo sapiens, UniProt O75116) | binding | 1 µM | 96 |
| Mitogen-activated protein kinase kinase kinase 15 (MAP3K15, Homo sapiens, UniProt Q6ZN16) | binding | 1 µM | 66 |
| Serine/threonine-protein kinase Chk1 (CHEK1, Homo sapiens, UniProt O14757) | binding | 1 µM | 100 |
| Membrane-associated tyrosine- and threonine-specific cdc2-inhibitory kinase (PKMYT1, Homo sapiens, UniProt Q99640) | binding, competition with immobilised ligand | 1 µM | 93 |
| Epithelial discoidin domain-containing receptor 1 (DDR1, Homo sapiens, UniProt Q08345) | binding, competition with immobilised ligand | 1 µM | 0.3 |
| Cyclin-dependent kinase 19 (CDK19, Homo sapiens, UniProt Q9BWU1) | DiscoverX cell-free binding | 1000 nM | 98 |

For quick reference, copied from above (set 1):
| SMILES | remaining activity |
| --- | --- |
| COc1ccc(CNC(=O)Nc2ncc([N+](=O)[O-])s2)cc1 | 100% |
| COc1ccc(C(=O)Nc2sc3c(c2C(N)=O)CCCC3)cc1OC | 81.8% |
| O=C(O)c1ccc2c3c1cccc3c(=O)n1c3ccccc3nc21 | 103% |
| CNC(=O)c1cc(Oc2ccc(NC(=O)Nc3ccc(Cl)c(C(F)(F)F)c3)cc2)ccn1 | 104% |
